Assay results gathered from unrelated publications.
Lines come from different studies, so protocols differ. ± marks the error that the study gave.
ache: Acetylcholinesterase (ache, Electrophorus electricus, UniProt O42275)
Chain of UniProt O42275 (whole entry, looked up): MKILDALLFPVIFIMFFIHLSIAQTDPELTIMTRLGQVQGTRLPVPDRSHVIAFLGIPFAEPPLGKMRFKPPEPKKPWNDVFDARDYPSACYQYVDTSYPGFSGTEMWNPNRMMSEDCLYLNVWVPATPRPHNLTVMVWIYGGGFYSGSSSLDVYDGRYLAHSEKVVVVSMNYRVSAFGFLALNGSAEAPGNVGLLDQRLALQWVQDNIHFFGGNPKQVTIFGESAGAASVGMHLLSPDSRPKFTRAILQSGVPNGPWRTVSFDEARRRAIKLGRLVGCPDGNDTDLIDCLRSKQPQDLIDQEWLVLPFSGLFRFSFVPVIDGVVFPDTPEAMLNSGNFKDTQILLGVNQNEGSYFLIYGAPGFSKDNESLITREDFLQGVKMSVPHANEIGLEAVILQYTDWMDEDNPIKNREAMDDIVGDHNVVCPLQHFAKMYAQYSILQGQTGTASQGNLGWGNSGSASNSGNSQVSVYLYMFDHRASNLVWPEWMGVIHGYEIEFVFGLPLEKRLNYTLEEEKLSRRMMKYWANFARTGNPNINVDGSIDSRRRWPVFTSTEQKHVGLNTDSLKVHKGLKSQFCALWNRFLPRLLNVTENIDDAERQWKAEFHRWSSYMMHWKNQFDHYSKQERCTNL
Chain of UniProt P23975 (whole entry, looked up): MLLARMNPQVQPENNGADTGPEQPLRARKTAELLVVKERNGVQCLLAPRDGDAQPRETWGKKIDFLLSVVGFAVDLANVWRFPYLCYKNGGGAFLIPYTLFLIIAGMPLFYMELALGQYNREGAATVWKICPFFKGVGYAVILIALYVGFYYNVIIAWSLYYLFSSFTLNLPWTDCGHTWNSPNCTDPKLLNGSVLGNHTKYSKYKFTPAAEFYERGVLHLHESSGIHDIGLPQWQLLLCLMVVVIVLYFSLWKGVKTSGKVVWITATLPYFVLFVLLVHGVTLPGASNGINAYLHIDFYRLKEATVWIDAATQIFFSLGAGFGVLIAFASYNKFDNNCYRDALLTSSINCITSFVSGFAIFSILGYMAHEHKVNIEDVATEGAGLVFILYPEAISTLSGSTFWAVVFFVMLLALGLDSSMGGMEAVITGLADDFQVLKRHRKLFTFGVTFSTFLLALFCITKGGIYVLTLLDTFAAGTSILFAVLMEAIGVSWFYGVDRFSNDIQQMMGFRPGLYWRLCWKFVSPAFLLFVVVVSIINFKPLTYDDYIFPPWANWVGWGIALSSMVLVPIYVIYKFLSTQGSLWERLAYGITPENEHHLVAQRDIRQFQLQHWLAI
Chain of UniProt P54753 (whole entry, looked up): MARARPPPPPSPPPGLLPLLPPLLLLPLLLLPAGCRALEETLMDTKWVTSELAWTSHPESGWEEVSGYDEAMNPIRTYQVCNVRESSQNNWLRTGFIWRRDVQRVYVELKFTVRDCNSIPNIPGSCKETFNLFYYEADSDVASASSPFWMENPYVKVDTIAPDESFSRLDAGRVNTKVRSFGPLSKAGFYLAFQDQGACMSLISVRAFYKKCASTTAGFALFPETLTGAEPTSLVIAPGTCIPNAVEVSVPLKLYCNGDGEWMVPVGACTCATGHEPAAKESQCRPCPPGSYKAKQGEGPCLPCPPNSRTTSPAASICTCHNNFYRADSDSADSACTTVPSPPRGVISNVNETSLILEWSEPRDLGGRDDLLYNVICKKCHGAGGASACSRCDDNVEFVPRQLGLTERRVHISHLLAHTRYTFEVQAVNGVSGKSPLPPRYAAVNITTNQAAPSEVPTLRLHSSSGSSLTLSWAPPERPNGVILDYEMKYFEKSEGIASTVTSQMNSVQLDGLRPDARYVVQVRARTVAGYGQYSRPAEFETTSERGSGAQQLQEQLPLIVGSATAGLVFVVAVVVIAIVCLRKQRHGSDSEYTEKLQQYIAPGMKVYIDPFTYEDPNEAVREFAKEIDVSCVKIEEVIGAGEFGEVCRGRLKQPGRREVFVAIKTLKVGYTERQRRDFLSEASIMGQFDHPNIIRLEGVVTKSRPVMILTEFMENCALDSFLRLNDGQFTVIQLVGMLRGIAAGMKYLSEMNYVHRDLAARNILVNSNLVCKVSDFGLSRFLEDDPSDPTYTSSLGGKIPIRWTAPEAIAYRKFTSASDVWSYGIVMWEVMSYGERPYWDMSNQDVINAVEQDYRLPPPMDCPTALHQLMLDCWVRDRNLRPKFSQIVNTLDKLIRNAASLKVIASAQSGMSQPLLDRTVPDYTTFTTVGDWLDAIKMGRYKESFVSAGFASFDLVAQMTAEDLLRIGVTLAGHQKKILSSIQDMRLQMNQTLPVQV
Chain of UniProt P19525 (whole entry, looked up): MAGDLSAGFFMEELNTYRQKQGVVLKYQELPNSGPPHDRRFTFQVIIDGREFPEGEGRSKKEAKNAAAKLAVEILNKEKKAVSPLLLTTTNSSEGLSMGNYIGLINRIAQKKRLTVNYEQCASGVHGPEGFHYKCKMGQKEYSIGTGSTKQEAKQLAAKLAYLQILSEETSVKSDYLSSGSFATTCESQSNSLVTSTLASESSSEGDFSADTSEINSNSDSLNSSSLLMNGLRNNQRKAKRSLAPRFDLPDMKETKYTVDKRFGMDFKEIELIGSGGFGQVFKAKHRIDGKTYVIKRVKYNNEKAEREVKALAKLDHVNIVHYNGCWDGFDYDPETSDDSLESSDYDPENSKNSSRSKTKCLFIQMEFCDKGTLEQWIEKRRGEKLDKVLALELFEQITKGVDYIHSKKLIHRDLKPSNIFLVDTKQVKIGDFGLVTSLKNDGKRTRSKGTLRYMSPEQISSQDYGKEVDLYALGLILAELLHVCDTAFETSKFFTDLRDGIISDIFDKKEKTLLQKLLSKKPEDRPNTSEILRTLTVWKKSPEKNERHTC
Chain of UniProt Q9Y2J8 (whole entry, looked up): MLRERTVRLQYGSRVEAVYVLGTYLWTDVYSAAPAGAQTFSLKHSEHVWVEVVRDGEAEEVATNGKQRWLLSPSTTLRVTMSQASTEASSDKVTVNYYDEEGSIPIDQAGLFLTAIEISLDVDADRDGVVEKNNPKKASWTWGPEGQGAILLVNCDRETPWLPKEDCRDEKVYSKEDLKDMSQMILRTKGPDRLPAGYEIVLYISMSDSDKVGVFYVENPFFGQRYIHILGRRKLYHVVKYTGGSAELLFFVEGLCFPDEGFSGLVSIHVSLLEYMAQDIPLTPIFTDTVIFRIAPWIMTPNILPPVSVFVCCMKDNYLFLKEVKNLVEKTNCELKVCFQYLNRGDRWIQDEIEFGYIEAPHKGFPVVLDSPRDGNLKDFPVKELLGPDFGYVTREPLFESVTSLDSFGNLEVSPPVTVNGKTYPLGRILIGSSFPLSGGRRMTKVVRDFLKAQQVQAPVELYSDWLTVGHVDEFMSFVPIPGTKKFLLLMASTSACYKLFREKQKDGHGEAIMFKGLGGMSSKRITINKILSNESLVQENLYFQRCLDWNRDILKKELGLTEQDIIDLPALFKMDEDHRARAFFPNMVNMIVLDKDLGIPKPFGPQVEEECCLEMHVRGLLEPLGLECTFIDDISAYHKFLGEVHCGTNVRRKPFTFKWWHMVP
Chain of UniProt P18031 (whole entry, looked up): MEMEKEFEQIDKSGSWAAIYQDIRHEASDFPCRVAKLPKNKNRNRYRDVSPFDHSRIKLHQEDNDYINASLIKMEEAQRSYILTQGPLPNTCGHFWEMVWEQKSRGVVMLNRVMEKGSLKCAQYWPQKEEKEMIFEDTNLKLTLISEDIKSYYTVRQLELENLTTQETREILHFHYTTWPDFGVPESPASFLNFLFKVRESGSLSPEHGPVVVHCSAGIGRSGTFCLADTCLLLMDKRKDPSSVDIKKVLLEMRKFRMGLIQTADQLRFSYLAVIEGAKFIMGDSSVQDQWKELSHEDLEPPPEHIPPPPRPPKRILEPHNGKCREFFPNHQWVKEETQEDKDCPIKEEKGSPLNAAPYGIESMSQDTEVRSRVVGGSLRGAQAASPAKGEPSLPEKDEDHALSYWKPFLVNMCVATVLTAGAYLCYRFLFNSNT
Chain of UniProt P21918 (whole entry, looked up): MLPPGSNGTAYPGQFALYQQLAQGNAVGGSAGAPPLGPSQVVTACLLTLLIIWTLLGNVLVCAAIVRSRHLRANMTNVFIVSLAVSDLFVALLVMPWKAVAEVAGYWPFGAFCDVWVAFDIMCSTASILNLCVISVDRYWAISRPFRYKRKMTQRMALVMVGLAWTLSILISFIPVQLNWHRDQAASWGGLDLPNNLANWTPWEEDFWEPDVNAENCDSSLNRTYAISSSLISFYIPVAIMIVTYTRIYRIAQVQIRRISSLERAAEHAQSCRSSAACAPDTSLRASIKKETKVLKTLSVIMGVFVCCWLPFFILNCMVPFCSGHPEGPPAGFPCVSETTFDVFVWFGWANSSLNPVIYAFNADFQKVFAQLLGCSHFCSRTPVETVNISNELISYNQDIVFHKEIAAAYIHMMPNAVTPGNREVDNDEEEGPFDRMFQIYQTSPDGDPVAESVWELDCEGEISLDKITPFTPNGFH
Chain of UniProt P28222 (whole entry, looked up): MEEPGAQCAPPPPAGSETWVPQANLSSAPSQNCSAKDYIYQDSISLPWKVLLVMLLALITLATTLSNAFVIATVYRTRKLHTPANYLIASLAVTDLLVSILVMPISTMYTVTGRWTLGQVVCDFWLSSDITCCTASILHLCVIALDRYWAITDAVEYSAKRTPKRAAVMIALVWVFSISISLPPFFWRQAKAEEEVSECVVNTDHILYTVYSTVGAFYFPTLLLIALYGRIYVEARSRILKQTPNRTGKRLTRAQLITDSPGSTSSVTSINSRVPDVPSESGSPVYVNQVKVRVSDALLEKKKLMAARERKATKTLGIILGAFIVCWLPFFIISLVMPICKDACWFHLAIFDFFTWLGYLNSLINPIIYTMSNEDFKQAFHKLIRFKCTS

| SMILES | target | assay | conditions | inhibition [%] |
| --- | --- | --- | --- | --- |
| C/C(=N\OCCCN1CCCCC1)c1ccc(C(F)(F)F)cc1 | 5-hydroxytryptamine receptor 1B (HTR1B, Homo sapiens, UniProt P28222) | antagonist, cAMP | 10 µM | 31 |
| CCc1nnc(-c2c(OC)cc(-c3cnc4cc(-c5cnn(C)c5)ccn34)cc2OC)o1 | Sodium-dependent noradrenaline transporter (SLC6A2, Homo sapiens, UniProt P23975) | antagonist radioligand, radioligand binding | 10 µM, SafetyScreen44 norepinephrine transporter | -7 |
| NC1CCCC1 | ache | enzyme activity, inhibitor, Ellman | 20 µM | 32.5 |
| CS(C)(=O)=Nc1ccc(-c2ccc(-c3nc4cc(O[C@@H]5CO[C@H]6[C@@H]5OC[C@H]6O)[nH]c4cc3F)cc2)cc1 | Tyrosine-protein phosphatase non-receptor type 1 (PTPN1, Homo sapiens, UniProt P18031) | enzyme activity, inhibitor | 10 µM | -1 |
| O=C(NC1CCN(c2ncnc3[nH]cnc23)CC1)c1cccc(NS(=O)(=O)c2ccc(C(F)(F)F)cc2)c1 | Replicase polyprotein 1ab, nsp14 (Human coronavirus OC43, UniProt P0C6X6) | enzyme activity | 0.04883 µM | 11.8 |
| CN[C@@H]1[C@H](O)[C@H](NC)[C@H]2O[C@]3(O)[C@H](O[C@@H]2[C@H]1O)O[C@H](C)C[C@H]3NC(=O)Cc1ccc(Cl)cn1 | Alpha-1D adrenergic receptor (ADRA1D, Homo sapiens, UniProt P25100) | ligand displacement, radioligand | 10 µM | 1 |
| N[C@H](C(=O)N1CCCC1)C1CCN(c2nccc3c(-c4ncc(Cl)cc4Cl)cccc23)CC1 | Protein-arginine deiminase type-2 (PADI2, Homo sapiens, UniProt Q9Y2J8) | enzyme activity, GDH-coupled | 0.03932 µM, with: 0.25 mM Ca2+ (low) | 60.4 |
| CN(C)[C@H]1C[C@@]23CC[C@@]4(O2)C(=CC[C@]2(C)[C@@H](c5ccc6ccncc6c5)CC[C@H]24)C=C3[C@@H](O)[C@@H]1O | Interferon-induced, double-stranded RNA-activated protein kinase (EIF2AK2, Homo sapiens, UniProt P19525) | ATP probe labelling, inhibitor, KiNativ profiling | 0.1 µM | -2.2 |
| CC(=O)NC[C@@H]1[C@@H](O)C[C@H]2[C@H](O)C[C@@H](CO)N12 | human placental β-N-acetylglucosaminidase |  | 0.342 µM, run 2, with: p-nitrophenyl GlcNAc | 80.7 |
| O=C1c2ccccc2CCCN1CCCCN1CCN(c2cccc(Cl)c2Cl)CC1 | D(1B) dopamine receptor (DRD5, Homo sapiens, UniProt P21918) | radioligand binding | concentration not given, with: [3H]SCH23390 | 73.3 |
| COc1cc([N+](=O)[O-])ccc1-n1cc(CCS(=O)(=O)F)nn1 | ache |  | 20 µM | 41.6 ± 3 |
| CC(C)[C@H]1NC(=O)C[C@H]2/C=C/CCSSC[C@@H](NC1=O)C(=O)N[C@H](Cc1cccc3ccccc13)C(=O)NCC(=O)O2 | Ephrin type-B receptor 3 (EPHB3, Homo sapiens, UniProt P54753) | enzyme activity, inhibitor | 10 µM | -0.9 |
| O=C(CN1CN(c2ccccc2)C2(CCN(C(=O)c3cnc4[nH]ncc4c3)CC2)C1=O)NCC(F)(F)F | Mitogen-activated protein kinase 10 (MAPK10, Homo sapiens, UniProt P53779) | inhibitor | concentration not given | < 50 |
